Assay results pooled from the literature.
Cell line: CCRF-CEM

SMILES | assay | setting | quantity | result
C#CCCCNCCNc1ccnc2cc(Cl)ccc12 | cell growth or viability, resazurin | 10 µM, 48 h | inhibition | 4.2%
CC(C)[C@H](NC(=O)[C@H](C(C)C)N(C)C)C(=O)N(C)[C@H](C(=O)N1CCC[C@H]1C(=O)N1CCC[C@H]1C(=O)O)C(C)C | cell growth or viability | 24 h | IC50 | 0.31 µM
C/C1=C\CC[C@@]2(C)O[C@H]2[C@H]2OC(=O)C(C)[C@@H]2CC1 (some centres unmarked) | cell growth or viability, resazurin |  | IC50 | > 500 µM
OC[C@H]1[C@@H](O)[C@@H](O)CN1Cc1ccccc1 | cell growth or viability, MTS | 72 h | IC50 | 101 µM
CC(C)C[C@H](NC(=O)[C@H](CCC(N)=O)NC(=O)CNC(=O)[C@H](Cc1c[nH]cn1)NC(=O)[C@H](CCC(N)=O)NC(=O)[C@H](CCCNC(=N)N)NC(=O)[C@H](CCCNC(=N)N)NC(=O)CNC(=O)CNC(=O)[C@H](CCCNC(=N)N)NC(=O)[C@H](CCCNC(=N)N)NC(=O)[C@H](CCCNC(=N)N)NC(=O)[C@H](CCC(N)=O)NC(=O)[C@H](CCCNC(=N)N)NC(=O)[C@H](CCCNC(=N)N)NC(=O)[C@H](CCCCN)NC(=O)[C@H](CCCCN)NC(=O)[C@H](CCCNC(=N)N)NC(=O)CN)C(=O)N[C@@H](Cc1c[nH]c2ccccc12)C(=O)N[C@@H](Cc1ccccc1)C(=O)N1CCC[C@H]1C(=O)N[C@@H](CCC(=O)O)C(=O)NCC(=O)N[C@@H](Cc1ccccc1)C(=O)O | trypan blue exclusion | 100 µM, 0.5 h | viability | < 30%
CC1CCC2C(C)C(OC(=O)CCC(=O)N(CCCc3cn(-c4ccc(CN5CCOCC5)cc4)nn3)CCNc3ccnc4cc(Cl)ccc34)OC3OC4(C)CCC1C32OO4 (centres unmarked) | cell growth or viability, resazurin | 10 µM, 48 h | inhibition | 33.3%
CC/C=C\C/C=C\C/C=C\C/C=C\C/C=C\C/C=C\CCC(=O)Nc1ccn(C2OC(CO)C(O)C2(F)F)c(=O)n1 (centres unmarked) | NCI-60 screen |  | CC50 | > 100 µM
CN(C)CC1C(=O)OC2C1CCC1(C)CC1CCC1(C)OC21 (centres unmarked) | cell growth or viability, resazurin |  | IC50 | 2.9 µM
OC[C@H]1[C@@H](O)[C@@H](O)CN1Cc1ccc(I)cc1 | cell growth or viability, MTS | 72 h | IC50 | 102 µM
CC12CCC3(CCC(=O)NCCCNc4ccnc5cc(Cl)ccc45)C(C)(OOC3(C)O1)O2 | cell growth or viability, resazurin | 10 µM, 48 h | inhibition | 22.9%
C[C@H]1C(O)O[C@@H]2O[C@@]3(C)CC[C@H]4[C@H](C)CCC1[C@@]24OO3 (some centres unmarked) | cell growth or viability, XTT |  | IC50 | 0.87 µM

Some of these lines once more:
SMILES | assay | setting | quantity | result
CN(C)CC1C(=O)OC2C1CCC1(C)CC1CCC1(C)OC21 (centres unmarked) | cell growth or viability, resazurin |  | IC50 | 2.9 µM
OC[C@H]1[C@@H](O)[C@@H](O)CN1Cc1ccc(I)cc1 | cell growth or viability, MTS | 72 h | IC50 | 102 µM
